Published values gathered from unrelated publications.
Each line is one published result; not all experiments were run side by side. Square brackets hold non-standard residues; d marks the D form. Ends that are not written are not given here.
B1: CD226 19-254 (Homo sapiens, UniProt Q15762); sequence looked up; chain EEVLWHTSVPFAENMSLECVYPSMGILTQVEWFKIGTQQDSIAIFSPTHGMVIRKPYAERVYFLNSTMASNNMTLFFRNASEDDVGYYSCSLYTYPQGTWQKVIQVVQSDSFEAAVPSNSHIVSEPGKNVTLTCQPQMTWPVQAVRWEKIQPRQIDLLTYCNLVHGRNFTSKFPRQIVSNCSHGRWSVIVIPDVTVSDSGLYRCYLQASAGENETFVMRLTVAEGKTDNQYTLFVA
B2: Il22 34-179 E43H/S45R/Q49S/N68Q/N97Q/Q116W/Q128K (Mus musculus, UniProt Q9JJY9); sequence looked up; chain LPVNTRCKLHVRNFQSPYIVNRTFMLAKEASLADQNTDVRLIGEKLFRGVSAKDQCYLMKQVLQFTLEDVLLPQSDRFQPYMWEVVPFLTKLSNKLSSCHISGDDQNIQKNVRRLKETVKKLGESGEIKAIGELDLLFMSLRNACV
B3: SPT15 (Saccharomyces cerevisiae, UniProt P13393); sequence looked up; chain MADEERLKEFKEANKIVFDPNTRQVWENQNRDGTKPATTFQSEEDIKRAAPESEKDTSATSGIVPTLQNIVATVTLGCRLDLKTVALHARNAEYNPKRFAAVIMRIREPKTTALIFASGKMVVTGAKSEDDSKLASRKYARIIQKIGFAAKFTDFKIQNIVGSCDVKFPIRLEGLAFSHGTFSSYEPELFPGLIYRMVKPKIVLLIFVSGKIVLTGAKQREEIYQAFEAIYPVLSEFRKM
B4: nusG 42-233 (Thermotoga maritima, UniProt P29397); sequence looked up; chain EEVVLDATSPSERLILSPKAKLHVNNGKDVNKGDLIAEEPPIYARRSGVIVDVKNVRKIVVETIDRKYTKTYYIPESAGIEPGLRVGTKVKQGLPLSKNEEYICELDGKIVEIERMKKVVVQTPDGEQDVYYIPLDVFDRDRIKKGKEVKQGEMLAEARKFFAKVSGRVEVVDYSTRKEIRIYKTKRRKLFP
B5: Tiam1 393-1591 (Mus musculus, UniProt Q60610); sequence looked up; chain MSTTNSESLEEAGSAHSDEQSSGTLSSPGQSDILLTAAQGTVRKAGALAVKNFLVHKKNKKVESATRRKWKHYWVSLKGCTLFFYETDGRSGIDHNSVPKHAVWVENSIVQAVPEHPKKDFVFCLSNSLGDAFLFQTTSQTELENWITAIHSACAAAVARHHHKEDTLRLLKSEIKKLEQKIDMDEKMKKMGEMQLSSVTDSKKKKTILDQIFVWEQNLEQFQMDLFRFRCYLASLQGGELPNPKRLLAFASRPTKVAMGRLGIFSVSSFHALVAARTGEIGVRRRTQAMSRSASKRRSRFSSLWGLDTTSKKKQGRPTINQVFGEGTDAVKRSLEGIFDDTVPDGKREKEVVLPSVHQHNPDCDIWVHEYFTPSWFCLPNNQPALTVVRPGDTARDTLELICKTHQLDHSAHYLRLKFLMENRVQFYIPQPEEDIYELLYKEIEICPKVTQNIHIEKSDAAADNYGFLLSSVDEDGIRRLYVNSVKETGLASKKGLKAGDEILEINNRAAGTLNSSMLKDFLSQPSLGLLVRTYPEPEGGVELLENPPHRVDGPVDLGESPLAFLTSNPGHSLSSEQGSSAETAPEEGEGPDLESSDETDHSSKSTEQVAAFCRSLHEMSPSDSSPSPQDATSPQLATTRQLSDADKLRKVICELLETERTYVKDLNCLMERYLKPLQKETFLTQDELDVLFGNLTEMVEFQVEFLKTLEDGVRLVPDLEKLEKVDQFKKVLFSLGGSFLYYADRFKLYSAFCASHTKVPKVLVKAKTDTAFKAFLDAQNPRQQHSSTLESYLIKPIQRVLKYPLLLRELFALTDAESEEHYHLDVAIKTMNKVASHINEMQKIHEEFGAVFDQLIAEQTGEKKEVADLSMGDLLLHTSVIWLNPPASLGKWKKEPELAAFVFKTAVVLVYKDGSKQKKKLVGSHRLSIYEEWDPFRFRHMIPTEALQVRALPSADAEANAVCEIVHVKSESEGRPERVFHLCCSSPESRKDFLKSVHSILRDKHRRQLLKTESLPSAQQYVPFGGKRLCALKGARPAMSRAVSAPSKSLGRRRRRLARNRFTIDSDAISASSPEKEPQQPAGGGDTDRWVEEQFDLAQYEEQDDIKETDILSDDDEFCESLKGASVDRDLQEQLQAASISQRARGRRTLDSHASRMTQLKKQAALSGINGGLESASEEVIWVRREDFAPSRKLNTEI
B6: TIF4631 572-853 K590R (Saccharomyces cerevisiae, UniProt P39935); sequence looked up; chain LVPSANRWVPKFKSKKTERKLAPDGKTELLDKDEVERKMKSLLNKLTLEMFDAISSEILAIANISVWETNGETLKAVIEQIFLKACDEPHWSSMYAQLCGKVVKELNPDITDETNEGKTGPKLVLHYLVARCHAEFDKGWTDKLPTNEDGTPLEPEMMSEEYYAAASAKRRGLGLVRFIGFLYRLNLLTGKMMFECFRRLMKDLTDSPSEETLESVVELLNTVGEQFETDSFRTGQATLEGSQLLDSLFGILDNIIQTAKISSRIKFKLIDIKELRHDKNWN
B7: Lair1/IgG1 Fc Fc fusion, extracellular domain 22-144 (Mus musculus); sequence looked up; chain QEGSLPDITIFPNSSLMISQGTFVTVVCSYSDKHDLYNMVRLEKDGSTFMEKSTEPYKTEDEFEIGPVNETITGHYSCIYSKGITWSERSKTLELKVIKENVIQTPAPGPTSDTSWLKTYSIY
B8: tost-1 (Caenorhabditis elegans, UniProt Q18490); sequence looked up; chain MTTAIQYQVIPLADREHSNKVASILENKYKTATNKRITLNERFGVLEKGYTIQATEPETVKNDSDVFFVVHDRNLNSKKEFVENYLAKNPIVNSPEKVFEEEDKENAPTKKAVLKPSSTDEKKLTSSDIYIQEITRSILQSV
B9: ETV6 48-121 V112E/R80S (Homo sapiens, UniProt P41212); sequence looked up; chain IRLPAHLRLQPIYWSRDDVAQWLKWAENEFSLSPIDSNTFEMNGKALLLLTKEDFRYRSPHSGDELYELLQHIL
B10: rI 25-97 (T4 phage, UniProt P13304); Cys69-Cys75 disulfide; sequence looked up; chain NVDPHFDKFMESGIRHVYMLFENKSVESSEQFYSFMRTTYKNDPCSSDFECIERGAEMAQSYARIMNIKLETE
B11: UGT1A9 (Homo sapiens, UniProt O60656); chain GKLLVVPMDGSHWFTMRSVVEKLILRGHEVVVVMPEVSWQLGRSLNCTVKTYSTSYTLEDLDREFKAFAHAQWKAQVRSIYSLLMGSYNDIFDLFFSNCRSLFKDKKLVEYLKESSFDAVFLDPFDNCGLIVAKYFSLPSVVFARGILCHYLEEGAQCPAPLSYVPRILLGFSDAMTFKERVRNHIMHLEEHLLCHRFFKNALEIASEILQTPVTEYDLYSHTSIWLLRTDFVLDYPKPVMPNMIFIGGINCHQGKPLPMEFEAYINASGEHGIVVFSLGSMVSEIPEKKAMAIADALGKIPQTVLWRYTGTRPSNLANNTILVKWLPQNDLLGHPMTRAFITHAGSHGVYESICNGVPMVMMPLFGDQMDNAKRMETKGAGVTLNVLEMTSEDLENALKAVINDKSYKENIMRLSSLHKDRPVEPLDLAVFWVEFVMRHKGAPHLRPAAHDLTWYQYHSLDVIGFLLAVVLTVAFITFKCCAYGYRKCLGKKGRVKKAHKSKTH
B12: ACAT1 (Homo sapiens, UniProt P24752); sequence looked up; chain VSKPTLKEVVIVSATRTPIGSFLGSLSLLPATKLGSIAIQGAIEKAGIPKEEVKEAYMGNVLQGGEGQAPTRQAVLGAGLPISTPCTTINKVCASGMKAIMMASQSLMCGHQDVMVAGGMESMSNVPYVMNRGSTPYGGVKLEDLIVKDGLTDVYNKIHMGSCAENTAKKLNIARNEQDAYAINSYTRSKAAWEAGKFGNEVIPVTVTVKGQPDVVVKEDEEYKRVDFSKVPKLKTVFQKENGTVTAANASTLNDGAAALVLMTADAAKRLNVTPLARIVAFADAAVEPIDFPIAPVYAASMVLKDVGLKKEDIAMWEVNEAFSLVVLANIKMLEIDPQKVNINGGAVSLGHPIGMSGARIVGHLTHALKQGEYGLASICNGGGGASAMLIQKL
B13: S100A8 1-93 C42S (Homo sapiens, UniProt P05109); chain MLTELEKALNSIIDVYHKYSLIKGNFHAVYRDDLKKLLETESPQYIRKKGADVWFKELDINTDGAVNFQEFLILVIKMGVAAHKKSHEESHKE
B14: RNase B unfolded, reduced (UniProt P61823); N-glycan, DyLight 680 label; sequence looked up; chain KETAAAKFERQHMDSSTSAASSSNYCNQMMKSRNLTKDRCKPVNTFVHESLADVQAVCSQKNVACKNGQTNCYQSYSTMSITDCRETGSSKYPNCAYKTTQANKHIIVACEGNPYVPVHFDASV
Chain of UniProt P06400 (whole entry, looked up): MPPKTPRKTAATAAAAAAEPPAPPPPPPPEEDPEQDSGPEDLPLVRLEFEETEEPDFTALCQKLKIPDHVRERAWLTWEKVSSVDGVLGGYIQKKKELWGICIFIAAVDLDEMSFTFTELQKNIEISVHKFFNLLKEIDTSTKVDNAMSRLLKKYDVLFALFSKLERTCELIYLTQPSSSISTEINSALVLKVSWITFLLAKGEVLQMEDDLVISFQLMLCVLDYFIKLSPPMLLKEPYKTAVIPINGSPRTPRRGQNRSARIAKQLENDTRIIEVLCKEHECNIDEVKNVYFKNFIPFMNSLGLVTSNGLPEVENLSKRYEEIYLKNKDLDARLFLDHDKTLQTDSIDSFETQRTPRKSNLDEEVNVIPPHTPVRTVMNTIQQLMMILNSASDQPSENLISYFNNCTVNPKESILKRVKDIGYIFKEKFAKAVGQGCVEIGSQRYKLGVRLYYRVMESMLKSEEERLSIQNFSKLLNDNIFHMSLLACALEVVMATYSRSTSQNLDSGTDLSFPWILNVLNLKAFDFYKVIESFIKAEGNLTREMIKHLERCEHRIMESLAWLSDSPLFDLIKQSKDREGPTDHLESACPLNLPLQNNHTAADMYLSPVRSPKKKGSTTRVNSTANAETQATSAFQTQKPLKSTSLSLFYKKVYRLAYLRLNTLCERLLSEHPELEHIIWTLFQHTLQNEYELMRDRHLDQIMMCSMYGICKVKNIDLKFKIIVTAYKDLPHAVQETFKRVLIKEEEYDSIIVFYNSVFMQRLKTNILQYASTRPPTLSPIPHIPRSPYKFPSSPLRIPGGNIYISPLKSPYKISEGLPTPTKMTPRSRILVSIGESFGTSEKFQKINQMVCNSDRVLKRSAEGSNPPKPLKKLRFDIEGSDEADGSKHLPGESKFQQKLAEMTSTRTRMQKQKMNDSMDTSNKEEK
Chain of UniProt P38811 (whole entry, looked up): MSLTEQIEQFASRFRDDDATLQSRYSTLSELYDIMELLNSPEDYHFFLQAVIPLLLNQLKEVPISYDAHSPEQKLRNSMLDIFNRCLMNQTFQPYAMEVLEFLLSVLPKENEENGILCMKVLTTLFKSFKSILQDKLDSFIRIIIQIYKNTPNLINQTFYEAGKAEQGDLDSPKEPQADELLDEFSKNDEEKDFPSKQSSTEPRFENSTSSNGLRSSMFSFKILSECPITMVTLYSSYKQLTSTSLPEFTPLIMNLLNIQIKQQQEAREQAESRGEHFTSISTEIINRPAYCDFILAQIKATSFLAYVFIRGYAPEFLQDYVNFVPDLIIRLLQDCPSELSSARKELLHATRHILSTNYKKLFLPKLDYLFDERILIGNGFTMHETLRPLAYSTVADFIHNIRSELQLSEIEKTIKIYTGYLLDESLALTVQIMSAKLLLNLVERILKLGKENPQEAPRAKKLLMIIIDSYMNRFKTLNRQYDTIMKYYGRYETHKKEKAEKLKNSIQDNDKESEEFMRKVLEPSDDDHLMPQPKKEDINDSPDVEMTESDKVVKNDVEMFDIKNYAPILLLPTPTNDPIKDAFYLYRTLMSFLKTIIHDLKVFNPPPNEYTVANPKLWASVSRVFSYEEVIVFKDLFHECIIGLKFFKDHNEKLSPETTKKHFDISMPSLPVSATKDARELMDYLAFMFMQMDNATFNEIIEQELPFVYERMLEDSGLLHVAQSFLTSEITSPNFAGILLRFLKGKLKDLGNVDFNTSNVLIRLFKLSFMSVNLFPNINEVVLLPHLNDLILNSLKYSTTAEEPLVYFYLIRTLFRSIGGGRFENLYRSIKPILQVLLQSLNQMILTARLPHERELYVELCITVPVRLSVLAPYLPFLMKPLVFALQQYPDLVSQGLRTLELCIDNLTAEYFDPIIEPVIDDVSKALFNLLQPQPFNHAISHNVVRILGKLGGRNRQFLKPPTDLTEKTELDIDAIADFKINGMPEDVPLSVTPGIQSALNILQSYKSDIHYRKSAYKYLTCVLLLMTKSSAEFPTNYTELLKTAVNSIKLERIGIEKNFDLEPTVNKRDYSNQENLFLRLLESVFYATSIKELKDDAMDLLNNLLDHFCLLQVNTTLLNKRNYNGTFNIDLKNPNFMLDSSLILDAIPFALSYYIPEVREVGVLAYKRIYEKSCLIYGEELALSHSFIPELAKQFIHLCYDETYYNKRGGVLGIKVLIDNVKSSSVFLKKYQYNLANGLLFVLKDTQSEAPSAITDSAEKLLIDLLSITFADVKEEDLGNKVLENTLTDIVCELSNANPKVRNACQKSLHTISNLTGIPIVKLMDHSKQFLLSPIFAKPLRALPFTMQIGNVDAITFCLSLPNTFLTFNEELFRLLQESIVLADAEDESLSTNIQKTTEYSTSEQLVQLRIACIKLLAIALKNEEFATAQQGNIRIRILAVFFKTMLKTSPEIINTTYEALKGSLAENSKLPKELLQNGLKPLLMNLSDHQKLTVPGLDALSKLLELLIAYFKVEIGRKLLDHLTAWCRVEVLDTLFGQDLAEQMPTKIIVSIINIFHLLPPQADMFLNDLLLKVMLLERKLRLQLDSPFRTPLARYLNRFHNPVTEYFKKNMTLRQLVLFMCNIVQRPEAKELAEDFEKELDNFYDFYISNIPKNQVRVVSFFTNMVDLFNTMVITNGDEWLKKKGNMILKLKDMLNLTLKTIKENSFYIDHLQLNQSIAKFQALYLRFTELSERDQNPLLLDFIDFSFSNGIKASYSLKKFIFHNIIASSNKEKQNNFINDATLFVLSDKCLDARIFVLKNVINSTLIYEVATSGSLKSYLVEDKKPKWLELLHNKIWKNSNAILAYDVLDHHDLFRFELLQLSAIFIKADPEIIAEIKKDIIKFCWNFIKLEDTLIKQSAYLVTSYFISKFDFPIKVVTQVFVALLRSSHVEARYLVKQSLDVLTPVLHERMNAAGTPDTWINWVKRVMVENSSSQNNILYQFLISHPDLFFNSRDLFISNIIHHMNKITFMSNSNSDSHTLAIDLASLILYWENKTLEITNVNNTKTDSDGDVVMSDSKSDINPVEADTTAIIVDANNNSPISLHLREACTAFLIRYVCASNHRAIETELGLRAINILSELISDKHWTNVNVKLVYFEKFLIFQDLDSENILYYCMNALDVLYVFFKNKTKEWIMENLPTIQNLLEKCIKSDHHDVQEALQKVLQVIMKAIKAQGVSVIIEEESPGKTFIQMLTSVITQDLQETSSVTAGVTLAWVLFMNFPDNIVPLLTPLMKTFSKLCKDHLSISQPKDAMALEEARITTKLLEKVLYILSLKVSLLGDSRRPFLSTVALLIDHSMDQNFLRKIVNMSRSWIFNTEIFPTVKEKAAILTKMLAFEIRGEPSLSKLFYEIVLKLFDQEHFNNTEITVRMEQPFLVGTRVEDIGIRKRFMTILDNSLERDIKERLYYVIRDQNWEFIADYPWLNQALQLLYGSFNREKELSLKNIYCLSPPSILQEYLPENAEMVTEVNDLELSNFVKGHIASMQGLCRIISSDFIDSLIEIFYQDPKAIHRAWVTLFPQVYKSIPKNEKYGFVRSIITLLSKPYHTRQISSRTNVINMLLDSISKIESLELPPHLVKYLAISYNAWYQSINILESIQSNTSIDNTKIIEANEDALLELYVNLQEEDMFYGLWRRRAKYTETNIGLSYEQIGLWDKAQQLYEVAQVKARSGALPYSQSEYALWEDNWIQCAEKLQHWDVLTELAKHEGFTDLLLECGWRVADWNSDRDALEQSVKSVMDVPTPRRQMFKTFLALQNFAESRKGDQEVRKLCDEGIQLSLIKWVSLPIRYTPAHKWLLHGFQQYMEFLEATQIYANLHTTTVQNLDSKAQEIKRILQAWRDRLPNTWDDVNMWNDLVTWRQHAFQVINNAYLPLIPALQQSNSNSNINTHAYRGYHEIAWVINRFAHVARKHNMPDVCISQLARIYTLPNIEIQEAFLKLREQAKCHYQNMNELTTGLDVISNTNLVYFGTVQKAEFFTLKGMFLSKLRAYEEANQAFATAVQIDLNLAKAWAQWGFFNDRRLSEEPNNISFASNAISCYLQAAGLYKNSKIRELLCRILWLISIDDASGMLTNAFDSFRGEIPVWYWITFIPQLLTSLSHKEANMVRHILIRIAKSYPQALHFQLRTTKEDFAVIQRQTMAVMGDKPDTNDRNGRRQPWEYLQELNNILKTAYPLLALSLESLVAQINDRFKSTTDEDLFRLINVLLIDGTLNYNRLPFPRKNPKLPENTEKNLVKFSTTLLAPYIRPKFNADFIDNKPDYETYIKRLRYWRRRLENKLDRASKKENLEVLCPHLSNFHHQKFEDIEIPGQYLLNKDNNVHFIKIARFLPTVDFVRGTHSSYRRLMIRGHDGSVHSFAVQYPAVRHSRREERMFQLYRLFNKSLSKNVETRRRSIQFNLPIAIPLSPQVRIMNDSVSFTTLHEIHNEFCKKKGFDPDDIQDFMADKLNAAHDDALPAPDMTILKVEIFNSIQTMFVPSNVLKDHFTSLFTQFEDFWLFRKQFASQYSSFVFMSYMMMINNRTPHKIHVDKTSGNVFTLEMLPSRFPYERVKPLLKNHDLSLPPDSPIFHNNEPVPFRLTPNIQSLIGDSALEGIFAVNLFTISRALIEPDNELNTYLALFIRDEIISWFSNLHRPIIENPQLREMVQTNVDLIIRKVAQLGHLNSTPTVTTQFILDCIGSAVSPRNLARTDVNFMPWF
Chain of UniProt P48735 (whole entry, unmodified, looked up): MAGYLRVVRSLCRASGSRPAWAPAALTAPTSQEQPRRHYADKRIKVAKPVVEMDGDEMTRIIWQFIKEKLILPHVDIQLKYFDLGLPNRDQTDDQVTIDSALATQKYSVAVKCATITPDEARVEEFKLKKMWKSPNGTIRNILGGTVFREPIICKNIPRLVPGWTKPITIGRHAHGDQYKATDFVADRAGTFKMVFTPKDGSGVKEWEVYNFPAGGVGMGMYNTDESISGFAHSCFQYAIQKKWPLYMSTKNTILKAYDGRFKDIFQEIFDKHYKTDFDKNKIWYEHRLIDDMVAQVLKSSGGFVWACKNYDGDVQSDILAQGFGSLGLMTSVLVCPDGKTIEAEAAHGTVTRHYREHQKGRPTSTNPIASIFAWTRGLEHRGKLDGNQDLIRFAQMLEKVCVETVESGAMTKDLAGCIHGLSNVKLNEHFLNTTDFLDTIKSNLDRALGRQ

Molecule	target or system	test	system	setting	quantity	value
B1 (CD226 19-254)	NECTIN2 Fc fusion ectodomain 32-360 (Homo sapiens, UniProt Q92692)	ELISA	Fc fusion	2 h, 37 °C, without Ca2+	binding	binds
MPIFLDHIANKFWILHYAGSGSSG (SPAM peptide L9A; peptide-RNA fusion)	CD274 ectodomain (Homo sapiens)	radioligand binding	peptide	1 h, 4 °C	binding	binds
IDEYFSEQPLKNLLLSTSEEQIEKCFIIENISTIA (IFNAR1 478-512 (Homo sapiens, UniProt P17181); sequence looked up)	TYK2 23-583 (Homo sapiens, UniProt P29597)	crystal structure	peptide	–	binding	binds
B2	Il10rb 20-220 N49Q/N102Q/N161Q/N199Q (Mus musculus, UniProt Q61190)	crystal structure	–	–	binding	binds
Ac-YQSAIKVEPA[pS]PPYYSEKTQL (PPARG residues 102-122 (Homo sapiens); N-acetyl, pS112; pS = N[C@@H](COP(=O)(O)O)C(=O)O)	PIN1 (Homo sapiens, UniProt Q13526)	NMR	peptide	–	binding	binds
B3 (SPT15)	SAGA complex (Saccharomyces cerevisiae, UniProt P38811)	native gel or EMSA	–	20 min, together with: Cy3-labeled TATA-box dsDNA 75 nM	binding	binds
B4 (nusG 42-233)	rpoC/rpoZ (Thermotoga maritima)	NMR titration	–	pH 7.5, 323 K, NaCl 50 mM	binding	binds
MPIFLDHALNKFWILHYAGSGSSG (SPAM peptide I8A; peptide-RNA fusion)	CD274 ectodomain (Homo sapiens)	radioligand binding	peptide	1 h, 4 °C	binding	binds
B5 (Tiam1 393-1591)	ANK1, 125I label (Homo sapiens, UniProt P16157)	radioligand binding	–	5 h, pH 7.4, 4 °C, NaCl 150 mM	binding	binds
B6 (TIF4631 572-853 K590R)	TIF1 S87C/G370C, Alexa488/Alexa546 labels (Saccharomyces cerevisiae, UniProt P10081)	conformation of molecule, smFRET	–	–	binding	binds
Ac-EIRCDEKPEDL-NH2 (PRDM2 residues 309-319 (Homo sapiens); N-acetyl, C-terminal amide)	RB1 372-581 linked 636-787 (Homo sapiens, UniProt P06400)	NMR titration	peptide	–	binding	binds
B7	COL3A1, hydroxyproline (Homo sapiens, UniProt P02461)	pull-down	Fc fusion	–	binding	binds
B8 (tost-1)	IFE-3/TOFU-6/PID-3/ERH-2 (Caenorhabditis elegans)	pull-down	–	–	binding	binds
B9 (ETV6 48-121 V112E/R80S)	TNK1 UBA domain C610A/C644A (Homo sapiens)	crystal structure	–	–	binding	binds
B10 (rI 25-97)	holin T periplasmic domain 56-218, Cys175-Cys207 disulfide (UniProt P06808)	crystal structure	–	–	binding	binds
B11 (UGT1A9)	COc1cc2ccc(=O)oc2cc1O	steady-state kinetics	–	pH 7.4, 37 °C	Vmax/Km	192 µL/min/mg
B12 (ACAT1)	IDH2 R140Q, pY107 (Homo sapiens, UniProt P48735)	co-IP	–	–	binding	binds
PHKB (Oryctolagus cuniculus, UniProt P12798)	PHKA1 (Oryctolagus cuniculus, UniProt P18688)	cross-linking	–	5 min, pH 6.8, 30 °C	binding	binds
B13 (S100A8 1-93 C42S)	S100A9 1-114 C3S/H103A/H105A (Homo sapiens, UniProt P06702)	SEC	–	without Ca2+	binding	binds
B14 (RNase B unfolded, reduced)	MNL1/PDI1 C579S (Saccharomyces cerevisiae)	pull-down	–	–	binding	binds
